Measurements from different studies.
Numbers after ± are the reported error.

Compound = COc1ccc(Nc2nc(Nc3ccc(OCCOCCOCC[18F])cc3)ncc2Br)cc1; test system = ICR mice, S180 tumour, intestine; setting = intravenous, 370 kBq, 30 min; tissue uptake = 4.62 ± 0.04 %ID
Compound = N[C@H](CSC(F)(F)[18F])C(=O)O; test system = Kunming mice, turpentine inflammation, inflamed muscle; setting = intravenous, 0.74 MBq, 60 min; tissue uptake = 1.63 ± 0.11 %ID/g
Compound = CC[C@H](C)[C@H](NC(=O)C[C@H](NC(=O)CN1CCN2CCN(CC1)CC(=O)[O][Al]([18F])[O]C(=O)C2)C(=O)O)C(=O)N[C@H]1CCc2cccc3c2N(C1=O)[C@H](C(=O)NCc1cn[nH]n1)C3; test system = C57BL/6J mice, MC-38 tumour, anti-PD-1 treated, muscle; setting = 0.5 h; tissue uptake = 0.4 ± 0.13 %ID/g
Compound = CN(O)C(=O)CCC(=O)NCCCN(CCCCN(CCCNC(=O)CCC(=O)N(C)O)C(=O)CCC(=O)N(C)O)C(=O)CCC(=O)N(C)O.[89Zr]; assay = gamma counting; test system = healthy Balb/c mice, plasma; setting = intravenous, 4 h, 89Zr-labelled complex; tissue uptake = 0.01 %ID/g
Compound = Cc1cc(C)n(CCN(CCN)CCCCCCNC(=O)[C@@H](N)Cc2c[nH]cn2)n1.[99Tc+].[C-]#[O+].[C-]#[O+].[C-]#[O+]; test system = BALB/c nude mice, A549 xenograft, stomach; setting = intravenous, 15 min; tissue uptake = 0.79 ± 0.25 %IA/g
Compound = C[N+](C)(CCOCCOCCOCCOCCOCCOCCOCCNC(=S)Nc1ccc(CC2CN(CC(=O)[O-])CCN(CC(=O)[O-])CCN2CC(=O)[O-])cc1)C[c-]1cccc1.[64Cu+2].[Fe+2].c1cc[cH-]c1 (centres unmarked); assay = item: large intestine; test system = nude mice, BxPC-3 tumour; setting = 24 h post injection, pretargeting, 72 h lag; tissue uptake = 0.1 ± 0.1 %ID/g
Compound = O=C(O)CCCOc1ccc([18F])cc1-c1cc(-c2ccccc2C(F)(F)F)n(-c2ccccc2)n1; test system = mice, large intestine; setting = intravenous, 360 min; tissue uptake = 4.38 ± 0.59 %ID/g
Compound = N#C[C@@H]1CCCN1C(=O)CNC(=O)c1ccnc2ccc(OCCCN3CCN(C(=O)CCc4ccc5c(c4)CN4CCN(Cc6cc(CCC(=O)O)ccc6O)CC(=O)[O][Al-]([18F])([O]C(=O)C4)[O]5)CC3)cc12 (some centres unmarked); test system = BALB/c nude mice, U-87 MG xenograft, spleen; setting = 1 h, blocking, together with: DOTA-FAPI-04 40 nmol/mouse co-injected; tissue uptake = 0.29 ± 0.18 %ID/g
Compound = CC(C)C[C@H](NC(=O)[C@@H](CCCCNC(=O)[C@@H](Cc1ccccc1)NC(=O)CCCCCCCNC(=O)CN1CCN(CC(=O)O)CCN(CC(=O)O)CCN(CC(=O)O)CC1)NC(=O)[C@H](Cc1ccc(O)cc1)NC(=O)[C@H](CO)NC(=O)[C@H](Cc1c[nH]c2ccccc12)NC(=O)[C@H](Cc1c[nH]cn1)NC(=O)[C@@H]1CCC(=O)N1)C(=O)N[C@@H](CCCNC(=N)N)C(=O)N1CCC[C@H]1C(=O)NCC(N)=O [indium-111 labelled]; assay = biodistribution; test system = male athymic nude mice, DU-145 prostate cancer xenograft, brain; setting = intravenous, 0.037 MBq, 1 h post-injection; tissue uptake = 0.11 ± 0.05 %ID/g
Compound = C[N+](C)(CCOCCOCCOCCNC(=S)Nc1ccc(C[C@H]2CN(CC(=O)[O-])CCN(CC(=O)[O-])CCN2CC(=O)[O-])cc1)C[c-]1cccc1.[64Cu+2].[Fe+2].c1cc[cH-]c1; assay = item: large intestine; test system = nude mice, BxPC-3 tumour; setting = 24 h post injection, pretargeting, 72 h lag; tissue uptake = 0.1 %ID/g
Compound = CCCC[C@H](NC(=O)CCCCCCCNC(=O)CN1CCN(CC(=O)O)CCN(CC(=O)O)CC1)C(=O)N[C@H]1CC(=O)NCCCC[C@@H](C(N)=O)NC(=O)[C@H](Cc2c[nH]c3ccccc23)NC(=O)[C@H](CCCNC(=N)N)NC(=O)[C@@H](Cc2ccccc2)NC(=O)[C@H](Cc2c[nH]cn2)NC1=O [fluorine-18 labelled]; test system = C57 mice, B16/F10 melanoma, skin; setting = intravenous, 1 h, together with: NDP-MSH 10 µg; tissue uptake = 0.3 ± 0.09 %ID/g
Compound = O=C(NCC1OC2CCC=CCCC2O1)c1ccc(COCCOCCOCC[18F])cc1 (centres unmarked); test system = healthy female BALB/c nude mice, bone; setting = intravenous, 7.4 MBq per mouse, 120 min; tissue uptake = 2.5 ± 0.2 %ID/g
Compound = O=C([O-])CN1CCN(CC(=O)[O-])CCN(CC(=O)NC[C@H]2CC[C@H](C(=O)N[C@H](Cc3cnc4ccccc4c3)C(=O)NCCCC[C@H](NC(=O)N[C@@H](CCC(=O)O)C(=O)O)C(=O)O)CC2)CCN(CC(=O)[O-])CC1.[64Cu+2]; assay = ex vivo gamma counting; test system = 22Rv1 tumour-bearing mice, muscle; setting = intravenous, 0.74 MBq, 24 h post-injection; tissue uptake = 1.55 %ID/g
Compound = Cc1nc(N)nc2c1C(=O)N[C@@H](c1ccc(F)cc1-c1cccc(OCC[18F])n1)C2; assay = ex vivo biodistribution; test system = C57BL/6 mice, brain; setting = intravenous, 1 MBq, 30 min; tissue uptake = 0.57 ± 0.02 %ID
Compound = N#C[C@@H]1CCCN1C(=O)CNC(=O)c1ccnc2ccc(OCCCN3CCN(C(=O)CCc4ccc(O)c(CN5CCN6CC(=O)[O][Al-]([18F])([O]C(=O)C5)[O]c5ccc(CCC(=O)N7CCN(CCCOc8ccc9nccc(C(=O)NCC(=O)N%10CCC[C@H]%10C#N)c9c8)CC7)cc5C6)c4)CC3)cc12 (some centres unmarked); test system = BALB/c nude mice, U-87 MG xenograft, kidney; setting = 2 h; tissue uptake = 2.9 ± 0.45 %ID/g
Compound = O=C(NCC1OC2CCC=CCCC2O1)c1ccc([18F])nc1 (centres unmarked); test system = healthy female BALB/c nude mice, small intestine; setting = intravenous, 7.4 MBq per mouse, 10 min; tissue uptake = 11.5 ± 1.7 %ID/g
Compound = Cc1cc(C)n(CCN(CCN)CCCCCCNC(=O)[C@@H](N)Cc2c[nH]c3ccccc23)n1.[99Tc+].[C-]#[O+].[C-]#[O+].[C-]#[O+]; test system = BALB/c nude mice, A549 xenograft, liver; setting = intravenous, 15 min; tissue uptake = 37.7 ± 5.37 %IA/g
Compound = N#C[C@@H]1CC(F)(F)CN1C(=O)CNC(=O)c1ccnc2c(NC(=O)[C@H](CCCCNC(=O)CCOCCOCCOCCOCCOCCOCCNC(=O)CN3CCN(CC(=O)[O-])CCN(CC(=O)[O-])CCN(CC(=O)[O-])CC3)NC(=O)CCCc3ccc(I)cc3)cccc12.[177Lu+3]; assay = biodistribution; test system = U-87 MG tumour-bearing mice, muscle; setting = 48 h; tissue uptake = 0.19 ± 0.06 %ID/g
Compound = CC(C)c1noc(C2CCN(c3ncnc(Nc4ccc(OCC[18F])cc4)c3[N+](=O)[O-])CC2)n1; assay = ex vivo biodistribution after PET; test system = C57BL/J male mice, kidney; setting = 60 min; tissue uptake = 8.42 ± 1.18 %ID/g
Compound = COc1ccc2c(c1)C(C)(C)C(/C=C/C1=C(Oc3ccc(C(=O)NCCCCOc4cc(CN(Cc5ccccn5)Cc5ccccn5)cc(CN(Cc5ccccn5)Cc5ccccn5)c4)cc3)C(=C/C=C3/N(CCCCS(=O)(=O)[O-])c4ccc(OC)cc4C3(C)C)CCC1)=[N+]2CCCCS(=O)(=O)[O-].O=[N+]([O-])[O-].O=[N+]([O-])[O-].[99Tc+].[C-]#[O+].[C-]#[O+].[C-]#[O+].[Zn+2]; test system = healthy BALB/c mice, urine and bladder; setting = 12 h; tissue uptake = 1.13 %ID/g
Compound = COc1ccc(Nc2nc(Nc3ccc(OCCOCC[18F])cc3)ncc2Br)cc1; test system = ICR mice, S180 tumour-bearing, lung; setting = intravenous, 370 kBq, 120 min; tissue uptake = 1.94 ± 0.32 %ID/g
Compound = CC(=O)N([O-])CCCCCNC(=O)CCC(=O)N([O-])CCCCCNC(=O)CCC(=O)N([O-])CCCCCN.[89Zr+4]; assay = gamma counting; test system = healthy Balb/c mice, plasma; setting = intravenous, 24 h, 89Zr-labelled complex; tissue uptake = 0.03 %ID/g
Compound = CCCC[C@H](NC(=O)CNC(=O)CNC(=O)[C@H](CCCCNC(=O)[C@H](CC(=O)O)NC(=O)C(C)c1ccc(CC(C)C)cc1)NC(=O)CN1CCN(CC(=O)O)CCN(CC(=O)O)CCN(CC(=O)O)CC1)C(=O)N[C@H]1CC(=O)NCCCC[C@@H](C(N)=O)NC(=O)[C@H](Cc2c[nH]c3ccccc23)NC(=O)[C@H](CCCNC(=N)N)NC(=O)[C@@H](Cc2ccccc2)NC(=O)[C@H](Cc2c[nH]cn2)NC1=O (some centres unmarked) [lutetium-177 labelled]; test system = C57 mice, tumour-bearing, liver; setting = intravenous, 0.037 MBq, 24 h; tissue uptake = 1.58 ± 0.78 %ID/g

A few entries again:
Compound = O=C(NCC1OC2CCC=CCCC2O1)c1ccc(COCCOCCOCC[18F])cc1 (centres unmarked); test system = healthy female BALB/c nude mice, bone; setting = intravenous, 7.4 MBq per mouse, 120 min; tissue uptake = 2.5 ± 0.2 %ID/g
Compound = C[N+](C)(CCOCCOCCOCCOCCOCCOCCOCCNC(=S)Nc1ccc(CC2CN(CC(=O)[O-])CCN(CC(=O)[O-])CCN2CC(=O)[O-])cc1)C[c-]1cccc1.[64Cu+2].[Fe+2].c1cc[cH-]c1 (centres unmarked); assay = item: large intestine; test system = nude mice, BxPC-3 tumour; setting = 24 h post injection, pretargeting, 72 h lag; tissue uptake = 0.1 ± 0.1 %ID/g
Compound = O=C([O-])CN1CCN(CC(=O)[O-])CCN(CC(=O)NC[C@H]2CC[C@H](C(=O)N[C@H](Cc3cnc4ccccc4c3)C(=O)NCCCC[C@H](NC(=O)N[C@@H](CCC(=O)O)C(=O)O)C(=O)O)CC2)CCN(CC(=O)[O-])CC1.[64Cu+2]; assay = ex vivo gamma counting; test system = 22Rv1 tumour-bearing mice, muscle; setting = intravenous, 0.74 MBq, 24 h post-injection; tissue uptake = 1.55 %ID/g
